Measurements gathered from unrelated publications.
Lines come from different studies, so protocols differ.
Target: Atypical kinase COQ8B, mitochondrial (COQ8B, Homo sapiens, UniProt Q96D53)

Structure (SMILES)	effect on	technique	concentration	setting	reference	endpoint	result
COc1c(Cl)cccc1Nc1c(-c2ccncc2C#C[C@@]2(C)CCCN2C(=O)/C=C/CN(C)C)[nH]c2c1C(=O)NCC2	cell-free assay	competition with immobilised ligand	3 µM			remaining binding	91%
Cc1ccc(-c2c(/C=C(\C#N)C(=O)NC(C)C)n(CCCO)c3ncnc(N)c23)cc1	cell-free assay	competition with immobilised ligand	1 µM			remaining binding	94%
C=CC(=O)N1CCc2ccc(-n3c(=O)ccc4cnc5ccc(-c6cnn(C)c6)cc5c43)cc21		KINOMEscan	1 µM		DMSO control	remaining binding	100%
CC(C)=CC1OC(C)(C)C2C=C3C(=O)C(Cl)=CC(O)C3C3C(O)C4OC4C(=O)C132 (stereo not drawn)	cell-free assay	competition with immobilised ligand	10 µM			remaining binding	89%
C=CC(=O)N1CCCC(n2c(=O)c3ncccc3n(Cc3ccc(Oc4ccccc4)cc3)c2=O)C1 (stereo not drawn)	cell-free assay	competition with immobilised ligand	1 µM			remaining binding	67%
CNC(=O)C1CCN(c2cc(C)c(F)cc2NC(=O)c2ccc(-c3cc(O)ccc3C)c(C)c2)CC1	binding	competition with immobilised ligand	1 µM			remaining binding	85%
COc1cc(Nc2nccc(-c3cnn4nc(OC)ccc34)n2)cc(C(F)(F)F)c1	binding	competition with immobilised ligand	1 µM			remaining binding	82%
CNC1C[S+]2CC[S+]3CC[S+](C1)[Ru-4]321([N]=C=S)[n]2c3ccc(OC)cc3c3c4c(c5cc(F)c[n+]1c5c32)C(=O)NC4=O (stereo not drawn)		KinomeScan	0.1 µM		untreated	remaining binding	96%
Nc1ncc2c(n1)-c1c([nH]c3ccc(C4=CCOCC4)cc13)CCC2	binding	competition with immobilised ligand	1 µM			remaining binding	67%
COc1cc(Nc2nc(C)cc(-c3cnn4nc(OC)ccc34)n2)cc(C(F)(F)F)c1		kinase binding	1 µM	ADCK4		percent of control binding	79%
CCN1CCN(Cc2ccc(C(=O)Nc3ccc(C)c(NCc4cnc5[nH]ccc5c4OC)c3)cc2C(F)(F)F)CC1	binding	competition with immobilised ligand	1 µM			remaining binding	100%
Cc1cnc2nc1Nc1cccc(c1)COC/C=C/COCc1cc(ccc1OCCN1CCOCC1)N2	binding		0.1 µM			remaining binding	85%

A few entries again:
Structure (SMILES)	effect on	technique	concentration	setting	reference	endpoint	result
CNC(=O)C1CCN(c2cc(C)c(F)cc2NC(=O)c2ccc(-c3cc(O)ccc3C)c(C)c2)CC1	binding	competition with immobilised ligand	1 µM			remaining binding	85%
